Results collected from several papers.
Each numbered part is a random draw from the data of one study; scales do not carry over between parts.
Sequence of UniProt Q96PY6 (whole entry, looked up): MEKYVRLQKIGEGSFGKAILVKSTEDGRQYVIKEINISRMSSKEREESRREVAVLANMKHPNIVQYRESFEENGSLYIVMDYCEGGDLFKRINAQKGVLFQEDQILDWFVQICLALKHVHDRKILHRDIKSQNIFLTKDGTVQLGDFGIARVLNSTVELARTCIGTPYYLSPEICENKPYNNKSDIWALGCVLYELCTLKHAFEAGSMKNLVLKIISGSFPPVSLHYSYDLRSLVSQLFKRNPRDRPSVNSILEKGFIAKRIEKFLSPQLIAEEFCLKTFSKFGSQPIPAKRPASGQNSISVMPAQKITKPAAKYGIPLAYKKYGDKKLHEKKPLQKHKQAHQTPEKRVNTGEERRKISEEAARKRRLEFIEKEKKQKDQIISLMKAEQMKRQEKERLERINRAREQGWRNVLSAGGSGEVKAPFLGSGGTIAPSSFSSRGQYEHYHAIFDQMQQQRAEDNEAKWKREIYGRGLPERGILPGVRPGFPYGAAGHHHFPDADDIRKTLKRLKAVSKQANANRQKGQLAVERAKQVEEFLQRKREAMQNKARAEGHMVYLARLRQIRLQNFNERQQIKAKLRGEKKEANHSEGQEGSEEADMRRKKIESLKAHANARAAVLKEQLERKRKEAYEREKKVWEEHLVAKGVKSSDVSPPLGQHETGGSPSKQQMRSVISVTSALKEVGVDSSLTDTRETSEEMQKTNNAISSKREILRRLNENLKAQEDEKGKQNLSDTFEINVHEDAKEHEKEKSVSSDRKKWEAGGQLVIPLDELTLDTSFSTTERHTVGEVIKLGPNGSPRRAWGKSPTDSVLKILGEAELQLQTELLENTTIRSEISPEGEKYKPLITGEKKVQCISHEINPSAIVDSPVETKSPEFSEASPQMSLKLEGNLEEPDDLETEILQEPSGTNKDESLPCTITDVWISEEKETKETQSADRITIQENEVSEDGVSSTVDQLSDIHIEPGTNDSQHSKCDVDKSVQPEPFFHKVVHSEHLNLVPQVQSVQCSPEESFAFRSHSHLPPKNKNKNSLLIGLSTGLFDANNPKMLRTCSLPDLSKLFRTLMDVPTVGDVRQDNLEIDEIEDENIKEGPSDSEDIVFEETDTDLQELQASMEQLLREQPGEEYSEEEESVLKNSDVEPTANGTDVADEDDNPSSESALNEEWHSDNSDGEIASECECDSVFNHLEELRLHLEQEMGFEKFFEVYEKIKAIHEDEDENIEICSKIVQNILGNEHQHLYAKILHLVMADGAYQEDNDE
Sequence of UniProt P08922 (whole entry, looked up): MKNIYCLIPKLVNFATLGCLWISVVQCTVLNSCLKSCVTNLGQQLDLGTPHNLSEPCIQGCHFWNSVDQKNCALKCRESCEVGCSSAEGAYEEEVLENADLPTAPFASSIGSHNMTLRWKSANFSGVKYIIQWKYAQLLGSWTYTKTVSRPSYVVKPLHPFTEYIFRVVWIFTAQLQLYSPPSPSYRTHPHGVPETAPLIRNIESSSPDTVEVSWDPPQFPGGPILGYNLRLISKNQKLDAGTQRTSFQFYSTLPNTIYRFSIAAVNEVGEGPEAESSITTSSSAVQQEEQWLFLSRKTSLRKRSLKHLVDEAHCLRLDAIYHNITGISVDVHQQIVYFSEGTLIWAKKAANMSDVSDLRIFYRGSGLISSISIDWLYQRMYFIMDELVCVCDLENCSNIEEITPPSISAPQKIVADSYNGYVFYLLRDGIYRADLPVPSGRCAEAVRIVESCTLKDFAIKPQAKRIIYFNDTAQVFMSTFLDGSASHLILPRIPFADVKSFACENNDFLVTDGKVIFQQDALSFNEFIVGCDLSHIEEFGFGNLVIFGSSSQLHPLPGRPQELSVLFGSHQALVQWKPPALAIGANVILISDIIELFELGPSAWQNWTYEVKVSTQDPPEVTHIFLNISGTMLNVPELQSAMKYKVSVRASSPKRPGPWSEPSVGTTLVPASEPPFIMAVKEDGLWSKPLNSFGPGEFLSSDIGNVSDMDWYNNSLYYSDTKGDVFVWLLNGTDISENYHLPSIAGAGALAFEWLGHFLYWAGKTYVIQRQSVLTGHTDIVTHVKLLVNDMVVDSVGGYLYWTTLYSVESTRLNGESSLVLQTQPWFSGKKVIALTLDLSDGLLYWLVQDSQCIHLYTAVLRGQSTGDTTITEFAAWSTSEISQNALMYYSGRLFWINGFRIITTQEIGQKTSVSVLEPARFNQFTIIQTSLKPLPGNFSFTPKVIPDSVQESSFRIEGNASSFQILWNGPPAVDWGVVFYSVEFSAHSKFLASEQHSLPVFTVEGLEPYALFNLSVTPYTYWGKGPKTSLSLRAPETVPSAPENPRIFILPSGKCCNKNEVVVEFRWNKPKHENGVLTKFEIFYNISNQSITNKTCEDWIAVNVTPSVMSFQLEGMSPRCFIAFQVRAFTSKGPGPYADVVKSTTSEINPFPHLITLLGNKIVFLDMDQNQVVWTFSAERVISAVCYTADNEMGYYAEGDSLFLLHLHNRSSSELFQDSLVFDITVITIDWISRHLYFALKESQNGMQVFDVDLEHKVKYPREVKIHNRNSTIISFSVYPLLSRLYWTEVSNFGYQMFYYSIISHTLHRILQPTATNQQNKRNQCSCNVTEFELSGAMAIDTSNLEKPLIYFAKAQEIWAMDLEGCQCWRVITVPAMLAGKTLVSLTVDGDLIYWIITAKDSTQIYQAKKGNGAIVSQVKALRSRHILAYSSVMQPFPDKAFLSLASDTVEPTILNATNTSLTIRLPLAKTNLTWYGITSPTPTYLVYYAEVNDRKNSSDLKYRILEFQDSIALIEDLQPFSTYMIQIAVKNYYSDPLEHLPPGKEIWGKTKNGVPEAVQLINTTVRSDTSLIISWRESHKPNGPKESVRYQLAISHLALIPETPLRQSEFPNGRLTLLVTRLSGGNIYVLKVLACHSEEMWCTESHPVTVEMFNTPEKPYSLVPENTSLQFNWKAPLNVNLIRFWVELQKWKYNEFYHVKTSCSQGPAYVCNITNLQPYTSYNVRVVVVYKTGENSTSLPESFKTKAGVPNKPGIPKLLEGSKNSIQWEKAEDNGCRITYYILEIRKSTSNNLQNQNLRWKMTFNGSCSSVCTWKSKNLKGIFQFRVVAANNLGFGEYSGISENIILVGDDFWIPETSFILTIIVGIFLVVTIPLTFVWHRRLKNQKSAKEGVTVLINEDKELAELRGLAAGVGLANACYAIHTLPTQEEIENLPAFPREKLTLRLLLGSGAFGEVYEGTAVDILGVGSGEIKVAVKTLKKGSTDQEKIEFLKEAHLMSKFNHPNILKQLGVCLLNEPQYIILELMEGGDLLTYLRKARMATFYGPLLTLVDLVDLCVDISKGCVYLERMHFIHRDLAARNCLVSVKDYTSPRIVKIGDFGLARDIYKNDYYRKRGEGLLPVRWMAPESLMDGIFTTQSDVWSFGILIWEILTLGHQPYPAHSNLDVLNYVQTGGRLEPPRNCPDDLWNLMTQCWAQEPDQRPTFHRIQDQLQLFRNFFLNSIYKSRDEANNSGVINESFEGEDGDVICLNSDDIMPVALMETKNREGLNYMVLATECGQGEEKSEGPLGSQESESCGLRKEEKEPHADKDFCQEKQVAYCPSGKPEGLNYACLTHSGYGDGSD
Sequence of UniProt P08581 (whole entry, looked up): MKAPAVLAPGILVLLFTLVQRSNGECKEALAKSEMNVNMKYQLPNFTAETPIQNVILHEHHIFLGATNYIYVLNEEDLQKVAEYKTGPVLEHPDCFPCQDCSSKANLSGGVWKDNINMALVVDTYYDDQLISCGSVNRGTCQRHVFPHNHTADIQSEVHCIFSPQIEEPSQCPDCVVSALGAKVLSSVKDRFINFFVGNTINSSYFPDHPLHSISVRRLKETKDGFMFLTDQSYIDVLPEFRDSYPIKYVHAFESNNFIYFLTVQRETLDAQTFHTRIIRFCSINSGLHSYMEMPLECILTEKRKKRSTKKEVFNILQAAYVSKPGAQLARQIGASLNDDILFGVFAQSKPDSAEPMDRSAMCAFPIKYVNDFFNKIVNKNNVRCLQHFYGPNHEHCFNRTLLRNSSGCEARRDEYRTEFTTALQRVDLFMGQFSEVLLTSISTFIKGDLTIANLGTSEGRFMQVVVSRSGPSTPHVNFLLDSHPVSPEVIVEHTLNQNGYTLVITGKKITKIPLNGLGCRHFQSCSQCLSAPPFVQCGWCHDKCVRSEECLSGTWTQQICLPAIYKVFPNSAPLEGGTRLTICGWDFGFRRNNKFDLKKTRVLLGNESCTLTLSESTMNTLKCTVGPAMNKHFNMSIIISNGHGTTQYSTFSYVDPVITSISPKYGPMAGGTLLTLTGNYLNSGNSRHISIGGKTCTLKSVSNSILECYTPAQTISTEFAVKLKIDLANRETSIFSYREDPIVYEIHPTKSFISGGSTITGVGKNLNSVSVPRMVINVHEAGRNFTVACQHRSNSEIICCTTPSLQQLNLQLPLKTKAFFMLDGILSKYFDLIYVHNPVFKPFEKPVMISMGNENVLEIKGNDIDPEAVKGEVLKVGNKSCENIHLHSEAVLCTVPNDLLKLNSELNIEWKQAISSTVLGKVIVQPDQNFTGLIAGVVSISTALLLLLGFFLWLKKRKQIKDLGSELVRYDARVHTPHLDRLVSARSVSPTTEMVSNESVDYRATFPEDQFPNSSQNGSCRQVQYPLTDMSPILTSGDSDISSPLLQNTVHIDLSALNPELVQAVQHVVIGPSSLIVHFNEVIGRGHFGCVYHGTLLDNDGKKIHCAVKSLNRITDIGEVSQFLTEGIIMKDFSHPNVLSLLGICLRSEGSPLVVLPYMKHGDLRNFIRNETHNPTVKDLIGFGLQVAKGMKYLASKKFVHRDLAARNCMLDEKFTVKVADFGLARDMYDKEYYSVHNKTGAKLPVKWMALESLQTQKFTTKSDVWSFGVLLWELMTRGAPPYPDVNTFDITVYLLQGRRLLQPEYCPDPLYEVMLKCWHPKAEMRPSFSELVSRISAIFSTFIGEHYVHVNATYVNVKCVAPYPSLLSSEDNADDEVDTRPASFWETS

Study 1 — species: mouse; sample: microsomes or S9; concentration: 2 µM; time: 0.5 h; endpoint: remaining compound
SMILES = O=C(Cn1nc2c(cc1=O)CCCC2)Nc1nc(-c2ccc3c(c2)OCO3)cs1; result = 55.2%
SMILES = COc1cccc(-c2nc3cc(Cl)ccc3c3ccnn23)c1; result = 8.82%
SMILES = O=C(c1c(OCC2CC2)cc(=O)n2c1CCCCC2)N1CCc2ccccc2C1; result = 0.221%
SMILES = Fc1cnc(Nc2ccccc2Cl)nc1Nc1ccccc1Cl; result = 61.1%
SMILES = COc1cccc(-c2noc(Cn3cnc4c(nnn4-c4ccc(F)cc4)c3=O)n2)c1; result = 63.8%
SMILES = O=C(O)c1cc2ccc3oc(-c4ccccc4)nc3c2n1Cc1cccc(Cl)c1; result = 63.6%
SMILES = CC(C)(C)c1cn2c3ccccc3nc2n1CCNC1CCCCC1; result = 9.34%
SMILES = Cc1nc(-c2ccccc2)nc2sc3c(=O)[nH]cnc3c12; result = 13.9%
SMILES = Cn1c(=O)c2c(ncn2CC(O)C/N=C2\CCCCCN2)n(C)c1=O (stereo not drawn); result = 84.4%

Study 2 — concentration: 1 µM; endpoint: remaining binding
Structure (SMILES): CNCc1ccccc1-c1csc([C@H](C)Nc2nc(C)nc3cc(OC)c(OC)cc23)c1
target = Tyrosine-protein kinase Yes (YES1, Homo sapiens, UniProt P07947); assay = cell-free assay, competition with immobilised ligand; result = 100%
target = Serine/threonine-protein kinase Nek1 (NEK1, Homo sapiens, UniProt Q96PY6); assay = cell-free assay, competition with immobilised ligand; result = 100%
target = Epidermal growth factor receptor (EGFR, Homo sapiens, UniProt P00533, del752-759); assay = cell-free assay, competition with immobilised ligand; result = 81%
target = Tyrosine-protein kinase ABL1, phosphorylated (ABL1, Homo sapiens, UniProt P00519, T315I); assay = cell-free assay, competition with immobilised ligand; result = 87%
target = Proto-oncogene tyrosine-protein kinase ROS (ROS1, Homo sapiens, UniProt P08922); assay = cell-free assay, competition with immobilised ligand; result = 100%
target = Hepatocyte growth factor receptor (MET, Homo sapiens, UniProt P08581); assay = cell-free assay, competition with immobilised ligand; result = 100%
target = Activin receptor type-1 (ACVR1, Homo sapiens, UniProt Q04771); assay = cell-free assay, competition with immobilised ligand; result = 100%
target = Serine/threonine-protein kinase tousled-like 2 (TLK2, Homo sapiens, UniProt Q86UE8); assay = cell-free assay, competition with immobilised ligand; result = 100%
target = Dual specificity mitogen-activated protein kinase kinase 4 (MAP2K4, Homo sapiens, UniProt P45985); assay = cell-free assay, competition with immobilised ligand; result = 100%
target = Phosphatidylinositol 4,5-bisphosphate 3-kinase catalytic subunit alpha isoform (PIK3CA, Homo sapiens, UniProt P42336, E542K); assay = cell-free assay, competition with immobilised ligand; result = 88%
target = Tyrosine-protein kinase Blk (BLK, Homo sapiens, UniProt P51451); assay = cell-free assay, competition with immobilised ligand; result = 94%
target = Serine/threonine-protein kinase 25 (STK25, Homo sapiens, UniProt O00506); assay = cell-free assay, competition with immobilised ligand; result = 100%
target = Protein kinase C delta type (PRKCD, Homo sapiens, UniProt Q05655); assay = cell-free assay, competition with immobilised ligand; result = 100%
target = Tyrosine-protein kinase ABL1, phosphorylated (ABL1, Homo sapiens, UniProt P00519, F317I); assay = binding; result = 80%
target = Maternal embryonic leucine zipper kinase (MELK, Homo sapiens, UniProt Q14680); assay = cell-free assay, competition with immobilised ligand; result = 74%
target = Ribosomal protein S6 kinase alpha-1, N-terminal kinase domain (RPS6KA1, Homo sapiens, UniProt Q15418); assay = cell-free assay, competition with immobilised ligand; result = 93%
target = Tyrosine-protein kinase Fes/Fps (FES, Homo sapiens, UniProt P07332); assay = cell-free assay, competition with immobilised ligand; result = 100%

Study 3 — organism: Sarcocystis neurona; effect on: parasite growth; strain: GFP/luciferase reporter; concentration: 10 µM; setting: hit confirmation screen; endpoint: inhibition
SMILES = CC(C)/N=c1\cc2n(-c3ccc(Cl)cc3)c3ccccc3nc-2cc1Nc1ccc(Cl)cc1; result = 98.9%
SMILES = CCc1nc(N)nc(N)c1-c1ccc(Cl)cc1; result = 98.3%
SMILES = O=C(c1ccc(F)cc1)C1CCN(CCn2c(=S)[nH]c3ccccc3c2=O)CC1; result = 98.6%
SMILES = CCCCCCNC(=O)n1cc(F)c(=O)[nH]c1=O; result = 98.2%
SMILES = COc1cc2nc(N3CCN(C(=O)c4ccco4)CC3)nc(N)c2cc1OC; result = 97.7%

Study 4 — effect on: enzyme activity; mode: inhibitor; concentration: 0.5 µM; reference: control; endpoint: remaining activity
Target: Serine/threonine-protein kinase 4 (STK4, Homo sapiens, UniProt Q13043)
Residues (Q13043 1-487): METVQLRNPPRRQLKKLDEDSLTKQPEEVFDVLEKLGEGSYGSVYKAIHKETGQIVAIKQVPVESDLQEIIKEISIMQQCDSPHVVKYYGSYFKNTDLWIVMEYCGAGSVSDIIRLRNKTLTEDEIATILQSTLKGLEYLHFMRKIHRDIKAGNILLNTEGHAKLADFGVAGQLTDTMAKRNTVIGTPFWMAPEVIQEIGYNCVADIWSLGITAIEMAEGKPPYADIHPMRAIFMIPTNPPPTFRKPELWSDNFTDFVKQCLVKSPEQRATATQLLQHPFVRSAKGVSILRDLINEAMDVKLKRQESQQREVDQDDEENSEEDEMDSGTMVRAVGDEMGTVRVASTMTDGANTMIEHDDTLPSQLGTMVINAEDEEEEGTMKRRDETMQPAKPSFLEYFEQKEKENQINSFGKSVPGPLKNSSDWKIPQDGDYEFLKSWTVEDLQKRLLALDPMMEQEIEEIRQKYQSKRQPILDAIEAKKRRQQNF
SMILES = CC#CC(=O)Nc1cc2c(Nc3ccc(F)c(Cl)c3)ncnc2cn1; result = 98.7%
SMILES = CCc1[nH]c(-c2ccc(OC)cc2)nc1-c1ccncc1; result = 106%
SMILES = Cc1cncc2cccc(S(=O)(=O)N3CCCN(C(=O)CN)C[C@@H]3C)c12; result = 95.4%
SMILES = N#CC(=C(N)Sc1ccc(N)cc1)c1ccccc1C(F)(F)F; result = 89.7%
SMILES = NC(=O)c1ccc(N(C(N)=O)c2c(F)cccc2F)nc1-c1ccc(F)cc1F; result = 101%
SMILES = Cc1cc(Nc2nc(-c3ccccc3)nc3ccccc23)n[nH]1; result = 58%
SMILES = Cc1ccc(NC2=CC(=O)c3sc(C)nc3C2=O)cc1; result = 93.5%
SMILES = O=C1Cc2c([nH]c3ccc([N+](=O)[O-])cc23)-c2ccccc2N1; result = 52.3%
SMILES = CC(=O)c1ccc(N2CCOCC2)cc1O; result = 102%
SMILES = Nc1ncnc2c1cnn2-c1ccccc1; result = 96.8%
SMILES = COc1ccc(S(=O)(=O)N(CCO)c2ccccc2CN(C)CC=Cc2ccc(Cl)cc2)cc1; result = 94.2%
SMILES = O=S(=O)(NCCNC/C=C/c1ccc(Br)cc1)c1cccc2cnccc12; result = 92.6%
SMILES = CCCC(=O)Oc1ccc2[nH]c(C(=O)c3cc4ccccc4[nH]3)cc2c1; result = 96.8%
SMILES = Nc1nc(Nc2ccc(S(N)(=O)=O)cc2)nn1C(=O)c1c(F)cccc1F; result = 19.9%
SMILES = COc1cc(Nc2c(C#N)cnc3cc(OCCCN4CCN(C)CC4)c(OC)cc23)c(Cl)cc1Cl; result = 7.4%
SMILES = Oc1ccc(Nc2nc(-c3ccc(Cl)cc3)cs2)cc1; result = 106%
SMILES = CC(C)(C)n1nc(Cc2cccc3ccccc23)c2c(N)ncnc21; result = 85.7%
SMILES = O=C1NC(=O)C(c2c[nH]c3ccccc23)=C1c1c[nH]c2ccccc12; result = 61.8%
SMILES = CSc1nc(-c2ccnc(N[C@@H](C)c3ccccc3)c2)c(-c2ccc(F)cc2)[nH]1 (racemic); result = 89.8%
SMILES = Nc1nccc(-c2c(-c3ccc(F)cc3)ncn2C2CCNCC2)n1; result = 103%
